Results gathered from unrelated publications.
Numbered parts are unrelated; each lists some results of a single study.

Set 1
Target: Ras GTPase-activating protein-binding protein 1, full length (G3BP1, Homo sapiens, UniProt Q13283)
Sequence of UniProt Q13283 (whole entry, looked up): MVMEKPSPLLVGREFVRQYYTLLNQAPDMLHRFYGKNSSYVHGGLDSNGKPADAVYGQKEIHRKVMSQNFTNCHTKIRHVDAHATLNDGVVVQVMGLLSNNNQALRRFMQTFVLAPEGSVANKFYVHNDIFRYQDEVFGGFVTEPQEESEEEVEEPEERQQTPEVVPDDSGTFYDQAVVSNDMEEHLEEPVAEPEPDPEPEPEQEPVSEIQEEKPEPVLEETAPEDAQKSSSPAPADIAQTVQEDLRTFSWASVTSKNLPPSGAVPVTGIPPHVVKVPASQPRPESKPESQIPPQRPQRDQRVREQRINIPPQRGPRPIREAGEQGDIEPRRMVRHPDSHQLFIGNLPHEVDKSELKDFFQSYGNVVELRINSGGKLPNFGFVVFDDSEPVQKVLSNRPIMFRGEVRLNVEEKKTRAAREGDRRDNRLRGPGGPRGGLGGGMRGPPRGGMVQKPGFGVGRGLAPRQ
Technique: RNA Bind-n-Seq
Molecule type: RNA
Sample: in vitro
Tested at: 200 nM
Setting: whole 134-nt RNA, ends assumed
Added: 150 mM KCl
Baseline: input library
Direction: higher = stronger binding
Shared flanks, not repeated: GGGAGUUCUACAGUCCGACGAUC … UGGAAUUCUCGGGUGUCAAGG
Oligonucleotide	log2 enrichment
UGGGAGGUGGAUUUUGUUUAUUUUUUUAGCUCCUUUCCAGGGGUGGGAAUUUUUUUUUAAUAUGUGUCAUGAAUAAAGUUGUUUUUGAAA	-0.0705
CCUGUGCUACACAUCGUAUGUACCGAAUCGGGGAAAAAGGGGUUUGGGGUUUUUUUGGGGAAAGUAUUAUGUUACGCCGUUCGGAUCUGC	0.25
CCUCAAGUCCUGUGCUACACAUCGUAUGUACCGAAUCGGGAGGGUGGGUGGGAAAGUAUUAUGUUACGCCGUUCGGAUCUGCACUUCCAG	1.93
GUCCUGUGCUACACAUCGUAUGUACCGAAUCAAACCCCCAAACCCCCCCAAACCCAAAAAAGUAUUAUGUUACGCCGUUCGGAUCUGCAC	-0.313
UCAAGUCCUGUGCUACACAUCGUAUGUACCGAAUCGGAAAAAGGUUUUUGGAGGAAAGUAUUAUGUUACGCCGUUCGGAUCUGCACUUCC	-1.02
CAAGUCCUGUGCUACACAUCGUAUGUACCGAAUCGGCCCGGGCCCGGGGCCCGGGAAAGUAUUAUGUUACGCCGUUCGGAUCUGCACUUC	-1.06
CAAGUCCUGUGCUACACAUCGUAUGUACCGAAUCGGAAAAAAAGGAGGAAAAAGGAAAGUAUUAUGUUACGCCGUUCGGAUCUGCACUUC	-0.923
UUUGCUUGCAGUAUCUGUUUCUCUUCCUAGGCUCAAGUUGGUGACCCAAGCCUAUUGUAAACAAGUGAUUAUCUCAAAGGGAGAUGCCAA	-0.206
UGCCCCUGGUGGCAUGCGGGGAGGAAGAGGUGGCCUCAUGGAUCGUGGUGGUCCCGGUGGAAUGUUCAGAGGUGGCCGUGGUGGAGACAG	0.266

Set 2
Target: Histone acetyltransferase KAT6A, winged helix 1, GST fusion (KAT6A, Homo sapiens, UniProt Q92794, residues 1-85)
Technique: protein binding microarray
Molecule type: double-stranded DNA, one strand shown
Sample: in vitro
Tested at: not given
Setting: 8-mer, flanks averaged, mean of 2 arrays, mostly near background
Baseline: not given
Direction: higher = stronger binding
Target sequence (chain): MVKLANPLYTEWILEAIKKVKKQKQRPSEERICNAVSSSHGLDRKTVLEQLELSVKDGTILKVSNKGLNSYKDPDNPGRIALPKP
Oligonucleotide	E-score
CGGGTAAG	0.208
AATAAACC	-0.0735
ACACGAAT	-0.19
ACTAGGGA	0.027
ACCACCGA	0.03
CTCGCGAG	0.108
CGCTCCGA	0.222
GGACCGTA	0.236
GCGAACCA	0.073
AGGCTGTG	-0.222
CAGAACCA	-0.142
GCCTTGAC	-0.0465
CACGCCCA	-0.1
ACAGTAGT	-0.0863
CTACCCCA	-0.167
ACTAGAAG	-0.109
TACTTCAA	-0.235
GCTCCTGA	0.136
AGTGCTAA	-0.00326
ATCCGAAC	-0.0652
AGCACTAC	-0.071
AGGCAATC	-0.223
CCCAACAG	-0.257

Set 3
Target: RNA binding protein fox-1 homolog 2, RRM domain, GST-SBP tag (RBFOX2, Homo sapiens, UniProt O43251-10, residues 100-194)
Technique: RNA Bind-n-Seq
Molecule type: RNA
Sample: in vitro
Tested at: 365 nM
Setting: natural RNA segment, single round, ends assumed
Baseline: no-protein control
Direction: higher = stronger binding
Shared flanks, not repeated: GGGAGUUCUACAGUCCGACGAUC … UGGAAUUCUCGGGUGCCAA
Residues (chain): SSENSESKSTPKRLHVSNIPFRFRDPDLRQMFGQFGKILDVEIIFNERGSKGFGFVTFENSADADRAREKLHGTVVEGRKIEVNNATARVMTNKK
Oligonucleotide	RBNS enrichment (R)
CCCAGAGCACAGGAGCUGCCAUGUCAGAUGGGAAAUCUGCCUAUGUCAUACCGUGACAGCCCGCAGGAUCAGGUGACUUCUAGCAGAGACCCUGGUUUUUUUCCUGUGCC	0.612
UGCUUAAACAUCUUAGGAAUUUUAAUAUAAAAAGAAAAGGCUUUCCCAUUUGCACUCUAUUUCAAAGAAUUGUUAUUGUUCCCUUUCGUUAAAAUCAGUGUUGGGAAUUA	0.608
UGAACAUUCUAAGUUGUACUGUUCUUAACAGACAUGAAAGAUCUCAGGUAAAUAAAAAAAAUUUUAAAUAUAGAUCACAAAAUUAAAAAGUAUGUGAAGAAAUAUGAUGG	0.589
UCACACACUGGACACCAUCACCUCUUUGGAACUGCCAGACCCUGGGGGUCCCCAGUGAGCAAAGGUCUGUCCUUGUCCCUUUGUCUGUCUGUGAAUAAAUGUGAGUUCGU	0.473
CUCCCUGUCACCCUGGACCCGUCCAGGCCAGCGCACCUUCUUUCUUACUAGUCUGUUUUACUGGCUGAGACACCCUAUUUGGCAUUUUCACUGCUGGCUGGUGUGAUGGG	0.489
UUGUAAAGGCCCCACGAGAGCGGGCCAGGCCGUGUGCCUCAGGCCCUUCUCCCUGGGUGUGCUUAAGGGGGCUCCUUGGGCCCGCCUCCCCAGGAGGUAGAAAAUGAGUG	0.258
UCUGGAAGGUGUGUGCACAGAGGGUGCUCAUGGGACUCGCAUGCAGCUCUCAGCACUGGGUGGGAGGGCGUUGGCUUGUCCAGAAUGGGGACGUGGGGCAGCCACCCCUG	4.91
UGCUAUGUAAAUUAGGACUUGCCUGCCAGGUCUCAGCUGUCAGUGGAGAGUAGGUUUCAGGAAACCGGUAGACUGUCAGCAGCUGCCUCAGAAACUGUUCACAAAAGUCA	0.658

Set 4
Target: Centromere-binding protein 1, full length, N-terminal tag (CBF1, Saccharomyces cerevisiae, UniProt P17106, residues 1-351)
Sequence of UniProt P17106 (whole entry, looked up): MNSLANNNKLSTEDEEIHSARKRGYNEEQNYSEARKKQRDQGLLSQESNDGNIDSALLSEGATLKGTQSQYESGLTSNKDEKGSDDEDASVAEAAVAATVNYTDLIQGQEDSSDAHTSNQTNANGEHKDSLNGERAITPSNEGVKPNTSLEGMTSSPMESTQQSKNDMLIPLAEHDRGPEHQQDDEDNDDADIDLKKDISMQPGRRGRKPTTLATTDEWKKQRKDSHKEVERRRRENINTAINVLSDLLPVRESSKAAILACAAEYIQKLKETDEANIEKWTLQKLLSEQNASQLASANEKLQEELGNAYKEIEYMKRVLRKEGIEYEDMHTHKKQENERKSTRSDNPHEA
Technique: protein-binding microarray
Molecule type: double-stranded DNA, one strand shown
Sample: in vitro
Tested at: 0.8 µM
Setting: whole 60-bp probe, no competitor
Direction: higher = stronger binding
Shared flanks, not repeated: … GTCTTGATTCGCTTGACGCTGCTG
Oligonucleotide	fluorescence intensity [a.u.]
CTAGTAATCTCGAATCACATGGTACCTCTTTCTTTC	2430
CTAAAGGGTCTTGGTGGTGTTGCAGTTGGACAATTC	530
GAATGTTCTCTCTTTCACGTGATAAGGTTTGCATAG	10100
CCTAACTACTATAAAATGGTGACATAGCTTCGTACA	537
GAAAAATGAGAAACAGGTGAAATTTGAGATAAATAG	504
CTATACCGAACATGTCACCTTGCATACCAACACTTC	542
GAAATAATTCAGCGTGATATGATGGAGTTTTGTTAG	694
CTACGCGGAGTCGCTGATGACGCAATAGGCACATTC	498
CTAGAAATTTAACCTCACGAGTTCATGATCATATTC	710
GAATTATACGGTACACATGTGGAGAAACAATTTTAG	640
CTAAGCAGCAGCAACAGCACCACCACCAATGCATTC	508
CCTAACTACTATAAGCACGTGTCATAGCTTCGTACA	11000
TGTACGAAGCTATATGCACGTGCTATAGTAGTTAGG	10800
CTAAGAGTATACATACACGTTCTCAGGGAAAAGTTC	599
CTACAACAGCACCACCACCAATGCATTTTGGCCTTC	495
TGTACGAAGCTATATCACACTATTATAGTAGTTAGG	521
CTATTGATATCGTGCGTCATGATGATAATACCGTTC	628
CTATGCACAGTGACTCACGAGTTTTTGTTTTCTTTC	600
GAAAATACAAATAATCGTAACATCATCTCTGTCTAG	496

For quick reference, copied from above (set 2):
Oligonucleotide	E-score
AATAAACC	-0.0735
ACACGAAT	-0.19
ACTAGGGA	0.027
ACCACCGA	0.03
CTCGCGAG	0.108
CGCTCCGA	0.222
GGACCGTA	0.236
GCGAACCA	0.073
AGGCTGTG	-0.222
CAGAACCA	-0.142
